Measured values of several laboratories.
Compare with care: the assays were run in different laboratories. ± gives the spread as reported.

| SMILES | target or system | test | system | conditions | scale | endpoint | result |
| --- | --- | --- | --- | --- | --- | --- | --- |
| CCC(=O)N(C)c1ccc(Cl)c(Cl)c1 | Escherichia coli | Ames test | WP2 uvrA | 5.00 mg/plate, with rat liver S9 | – | revertants | 0 revertants/plate |
| CC(C)C[C@@H](N)C(=O)NCC(=O)N[C@H](C)C(=O)N[C@H](CO)C(=O)N[C@H](Cc1c[nH]c2ccccc12)C(=O)N[C@H](Cc1c[nH]cn1)C(=O)N[C@H](CCCNC(=N)N)C(=O)N1CCC[C@@H]1C(=O)N[C@H](CC(=O)O)C(=O)N[C@H](CCCCN)C(=O)N[C@H](CS)C(=O)N[C@H](CS)C(=O)N[C@H](CC(C)C)C(=O)NCC(=O)N[C@H](Cc1ccc(O)cc1)C(=O)N[C@H](CCC(N)=O)C(=O)N[C@H](CCCCN)C(=O)N[C@H](CCCNC(=N)N)C(=O)N1CCC[C@@H]1C(=O)N[C@H](CC(C)C)C(=O)N1CCC[C@@H]1C(N)=O | – | LC-MS/MS | rat plasma | 500 ng/mL, 12 h, 25 °C, room temperature before extraction | relative to: nominal | accuracy | 102% |
| CC[C@H](C)[C@H](NC(=O)[C@H](CCCCN)NC(=O)CNC(=O)[C@@H](NC(=O)[C@H](Cc1c[nH]cn1)NC(=O)[C@H](Cc1c[nH]cn1)NC(=O)[C@@H](NC(=O)CNC(=O)[C@H](Cc1c[nH]cn1)NC(=O)[C@H](Cc1ccccc1)NC(=O)[C@H](CC(C)C)NC(=O)[C@H](CC(C)C)NC(=O)[C@H](CCCNC(=N)N)NC(=O)[C@H](Cc1ccccc1)NC(=O)[C@@H](N)Cc1ccccc1)C(C)C)C(C)C)C(=O)N[C@@H](CCCCN)C(=O)N1CCC[C@H]1C(=O)N[C@@H](CCCNC(=N)N)C(=O)N[C@@H](C)C(N)=O | – | – | zebrafish embryos | 1 h, 4, 28, 52 hpf | – | acute toxic concentration | 25 µg/mL |
| COc1ccc(CNc2nc(N3CCC[C@H]3CO)ncc2C(=O)NN)cc1Cl | Salmonella typhimurium | – | TA100 | 62.5 µg/plate, 48 h | – | revertant count | 143 ± 22 |
| CC(CCC(=O)NCC(=O)O)C1CCC2C3CCC4CC(OC5OC(C(=O)O)C(O)C(O)C5O)CCC4(C)C3CC(O)C12C (stereo not drawn) | – | – | human, SLCO1B1 *5/*15, plasma | geometric mean, sex-adjusted | – | plasma concentration | 516 ng/mL |
| CC(C)[C@H](NC(=O)CNC(=O)[C@H](CCC(N)=O)NC(=O)[C@H](C)N)C(=O)O | – | – | human | 1 mg/kg single dose | – | subjects with severe adverse events | 0% |
| [11CH3]n1c(=O)n(CCCO)c(=O)c2c1nc(Oc1cccc(OC(F)(F)F)c1)n2Cc1ccc(Cl)cc1 | – | ex vivo biodistribution | Sprague Dawley rat, spleen | 5 min post injection | – | tracer uptake | 1.26 ± 0.28 %ID/g |
| CCCC[C@H](NC(=O)CNC(=O)CNC(=O)c1ccc(NN)nc1)C(=O)N[C@H]1CC(=O)NCCCC[C@@H](C(N)=O)NC(=O)[C@H](Cc2c[nH]c3ccccc23)NC(=O)[C@H](CCCNC(=N)N)NC(=O)[C@@H](Cc2ccccc2)NC(=O)[C@H](Cc2c[nH]cn2)NC1=O [technetium-99m labelled] | – | – | C57 mouse, B16/F1 melanoma-bearing | intravenous, 24 h | relative to: tumour over skin | tissue uptake ratio | 34.9 |
| COC(=O)C[C@](O)(CCCC(C)(C)OC(C)=O)C(=O)O[C@@H]1C(OC)=C[C@]23CCCN2CCc2cc4c(cc2[C@H]13)OCO4 | – | – | CD1 mouse, stomach | subcutaneous, 1 mg/kg, 2 h | – | tissue concentration | 97.8 ng/mL |
| COc1cc2ncnc(Oc3cccc(N[11C](=O)Nc4cc(C(C)(C)C(F)(F)F)on4)c3)c2cc1OC | – | radio-HPLC | female Balb/c nude mice, plasma | intravenous, 5 min | relative to: radioactivity | intact compound in plasma | 92.2% |
| CC[C@H](C)C(=O)N1CCC(NC(=O)Nc2ccc(OC(F)(F)F)c(F)c2)CC1 | – | – | healthy volunteers | oral, 24 mg single dose | – | subjects with serious TEAE | 0% |
| CC[C@@H]1C[C@]1(NC(=O)[C@@H]1C[C@@]2(CN1C(=O)[C@@H](NC(=O)[C@@H](NC(=O)[C@@H]1CCCCN1C(C)C)C1CCCCC1)C(C)(C)C)C(C)(C)C21CCC1)C(=O)NS(=O)(=O)N1CCCC1 | – | – | human, plasma | oral, 50 mg | – | terminal half-life | ~3 h |
| CCCCCCCCCCCCCCCCC(=O)N[C@@H](CCCCN)C(=O)N[C@@H](CCCCN)C(=O)N[C@@H](CCCCN)C(=O)N[C@@H](CCCCN)C(=O)N[C@@H](CCCCN)C(N)=O | – | – | Galleria mellonella larvae | 50 mg/kg, 4 d | – | survival | 80% |
| C[C@@](O)(C(F)F)[C@H](NC(=O)c1ccc(C#CC#CC2CC2)cc1)C(=O)NO | – | – | mouse, plasma | intravenous, 40 mg/kg | – | Vd | 7.7 L/kg |
| CN[C@](C)(C[18F])C(=O)O | MDA-MB-468 tumour model | – | host not given, bone | 2 h, tumour-bearing | – | tracer uptake | 1.3 %ID/g |

For quick reference, copied from above:
| SMILES | target or system | test | system | conditions | scale | endpoint | result |
| --- | --- | --- | --- | --- | --- | --- | --- |
| C[C@@](O)(C(F)F)[C@H](NC(=O)c1ccc(C#CC#CC2CC2)cc1)C(=O)NO | – | – | mouse, plasma | intravenous, 40 mg/kg | – | Vd | 7.7 L/kg |
